Results pooled from the literature.
Each numbered part is a random draw from the data of one study; scales do not carry over between parts. Substitutions count along the parent as printed.

Block 1
Target: Sal-like protein 4, full length isoform A (SALL4, Homo sapiens, UniProt Q9UJQ4, residues 1-1053)
Sequence of UniProt Q9UJQ4 (whole entry, looked up): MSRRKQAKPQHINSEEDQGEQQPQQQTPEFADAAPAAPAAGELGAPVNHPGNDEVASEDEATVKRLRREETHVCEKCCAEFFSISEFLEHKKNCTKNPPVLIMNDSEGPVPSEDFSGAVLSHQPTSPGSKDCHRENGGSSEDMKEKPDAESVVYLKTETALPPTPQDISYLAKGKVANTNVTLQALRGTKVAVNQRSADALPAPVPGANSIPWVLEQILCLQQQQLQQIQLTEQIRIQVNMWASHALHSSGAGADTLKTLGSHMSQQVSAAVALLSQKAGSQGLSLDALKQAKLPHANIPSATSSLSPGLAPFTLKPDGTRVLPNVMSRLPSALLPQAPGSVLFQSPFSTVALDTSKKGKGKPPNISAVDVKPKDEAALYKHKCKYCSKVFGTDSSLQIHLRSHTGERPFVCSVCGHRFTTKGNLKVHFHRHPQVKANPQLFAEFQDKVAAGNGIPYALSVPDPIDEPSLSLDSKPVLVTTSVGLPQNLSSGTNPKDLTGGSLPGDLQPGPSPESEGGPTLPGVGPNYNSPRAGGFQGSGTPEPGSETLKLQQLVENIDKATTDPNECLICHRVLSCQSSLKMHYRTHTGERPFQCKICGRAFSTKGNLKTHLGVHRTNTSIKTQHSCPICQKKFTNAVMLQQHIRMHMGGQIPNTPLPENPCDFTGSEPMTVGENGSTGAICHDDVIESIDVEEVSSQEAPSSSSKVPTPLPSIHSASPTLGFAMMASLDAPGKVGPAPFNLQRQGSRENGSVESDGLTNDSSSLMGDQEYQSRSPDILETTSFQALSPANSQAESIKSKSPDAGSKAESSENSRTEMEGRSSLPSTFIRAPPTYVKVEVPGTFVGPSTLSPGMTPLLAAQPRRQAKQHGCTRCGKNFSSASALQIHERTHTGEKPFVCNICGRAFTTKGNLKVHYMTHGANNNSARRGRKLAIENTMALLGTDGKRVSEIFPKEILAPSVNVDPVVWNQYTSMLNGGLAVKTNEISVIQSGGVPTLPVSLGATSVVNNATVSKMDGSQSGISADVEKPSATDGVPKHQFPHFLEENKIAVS
Technique: universal PBM
Form: double-stranded DNA, one strand shown
Medium: in vitro
Tested at: 600 nM
Notes: 8-mer, flanks averaged, mean of replicates
Direction: higher = stronger binding
The E-score of `CTAGCTTA` is reported as 0.0926.
The E-score of `AACATGTG` is reported as 0.226.
The E-score of `CGTTCCCA` is reported as -0.118.
`ATCGTGCA` has an E-score of 0.0169.
With `ATTCTCTC` the E-score was -0.0932.
For `CTGATGTA`, the E-score was 0.123.
`CATAGAGC` has an E-score of -0.082.
For `CCTGGAAC`, the E-score was -0.127.
With `AAAGGCCC` the E-score was -0.18.

Block 2
Target: RNA binding protein fox-1 homolog 2, RRM domain, GST-SBP tag (RBFOX2, Homo sapiens, UniProt O43251-10, residues 100-194)
Technique: RNA Bind-n-Seq
Form: RNA
Medium: in vitro
Tested at: 365 nM
Notes: natural RNA segment, single round, ends assumed
Reference: no-protein control
Direction: higher = stronger binding
Target sequence (chain): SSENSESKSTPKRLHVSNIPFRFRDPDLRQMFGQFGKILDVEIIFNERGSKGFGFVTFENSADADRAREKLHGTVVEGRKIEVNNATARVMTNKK
`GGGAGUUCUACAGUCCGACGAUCAGUCUCGUUCUGUUGUGUUCUGAGAAGAUGCCUGAGGCAGUAUGGGAGUUUCAACACCCCUGCUGUCCCUUUAACUUGUAUUGUCCUAGACCCUGUCCUGGAAGUUAGAGUGGAAUUCUCGGGUGCCAA` — result for “RBNS enrichment (R)”: 0.558.
For `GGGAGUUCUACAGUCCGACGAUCCGAGCUAUGCAACCUCUGUUCUUGUAUUUCUUAUGAUCUCUGAUGGGUUCUUCUCGAAAAUGCCAAGUGGAAGACUUUGUGGCAUGCUCCAGAUUUAAAUCCAGCUGAGGUGGAAUUCUCGGGUGCCAA`, “RBNS enrichment (R)” read 0.591.
Under “RBNS enrichment (R)”, `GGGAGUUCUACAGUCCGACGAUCUUAGGGUCCACGCCCAUGUACCUGAAACAUUUGGAAGCCCCAUAAUUGUUCUAGUUAGAAAGGGUUCAGGGCAUGGGGAGAGGAGUGGGAAAUUGAUUAAAGGGGCUGUCUGGAAUUCUCGGGUGCCAA` is recorded as 0.682.
For `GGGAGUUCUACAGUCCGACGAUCGAGUAACAAACACUGUUCUCACUGAGUCUUCUUUCCCCAUUCUGUAGUCCUGUGGAGGAGGAGGGUCCUCCCAGGAGGACCUGUGUGUUCUUUCAAAGCCUUAGAGUGGCUGGAAUUCUCGGGUGCCAA`, “RBNS enrichment (R)” read 0.203.
Under “RBNS enrichment (R)”, `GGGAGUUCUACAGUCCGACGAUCAUAUGUACCCUUUCCACCCCUUGACUUGCUGAAGAAACGUUAUAGAAGAAAUUAAAUGAAUUUCCCAGGCUUUUAGGAUCCUCUGAAAUUUUGAGGAUAGGUGAGGCCUGUGGAAUUCUCGGGUGCCAA` is recorded as 0.973.
For `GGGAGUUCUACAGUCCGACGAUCGGCAGAGGCAACAGUGUUUAGGAUUUGGGUUAUCAUAAGGUGUUAAGAGUCCCUUGUUAAAGGGGCAGUGGGAGUUAUGGGGUCAUCAAGGACCUUGCCUCUCUGGAAUCUGGAAUUCUCGGGUGCCAA`, “RBNS enrichment (R)” read 1.02.
`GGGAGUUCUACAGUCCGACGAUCUAAAUGCCAUUAUUUUUAUAUGGAAAUUUUAUAGAAGAGCUAUUUCUGUAUACGUAAUUACUCCUGAUUUUCUGAAAUUGCUUCUGGUAGAUAACAGACAAGUCCUAAGCUGGAAUUCUCGGGUGCCAA`: “RBNS enrichment (R)” 0.549.
Under “RBNS enrichment (R)”, `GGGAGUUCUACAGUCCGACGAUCGCAUCAAGGAAAAGGUAUGAUGCCGCCGCCGCCUAUGGGCAUGAUGCCGCCGCCUCCGCCACCUCCCAGUGGGCAGCCCCCGCCUCCUCCCUCUGGUCCUCUUCCUCCAUUGGAAUUCUCGGGUGCCAA` is recorded as 0.489.
`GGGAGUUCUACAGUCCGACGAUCCCUGCCCUAGAAACUCCAUAAAUGCUGUCACAACCCUAUCAUCGCUGAUGCUUUCUGCAUGUCAGCAGUCCAGGAGGAUGCUUUUUGUCUCUCUUUGCCUCCACUUUACAUGGAAUUCUCGGGUGCCAA` — result for “RBNS enrichment (R)”: 0.786.

Block 3
Target: CCNA2, cyclin fold, Cln2 fusion (human)
Technique: yeast growth competition, sequencing
Medium: yeast
Notes: strong parent motif
Reference: not given
Direction: higher = stronger binding
Starting sequence: ORC1 docking peptide (human); PRARKRLELGNLG; partner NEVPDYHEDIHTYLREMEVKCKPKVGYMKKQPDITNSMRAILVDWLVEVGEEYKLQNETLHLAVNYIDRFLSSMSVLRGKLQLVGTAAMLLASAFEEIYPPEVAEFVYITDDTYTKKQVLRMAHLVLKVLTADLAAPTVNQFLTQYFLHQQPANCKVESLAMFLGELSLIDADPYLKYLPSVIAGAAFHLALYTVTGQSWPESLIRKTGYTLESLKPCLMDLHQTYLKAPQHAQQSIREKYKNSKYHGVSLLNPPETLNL
`PRARKELELGNLG [R6E]` — result for “normalised enrichment score”: 1.11.
Under “normalised enrichment score”, `PRALKRLELGNLG [R4L]` is recorded as 0.949.
`PRARKRKELGNLG [L7K]` — result for “normalised enrichment score”: 2.15.
`PRIRKRLELGNLG [A3I]`: “normalised enrichment score” 1.06.
`PRARMRLELGNLG [K5M]`: “normalised enrichment score” 2.25.
For `PRPRKRLELGNLG [A3P]`, “normalised enrichment score” read 1.88.
`PCARKRLELGNLG [R2C]`: “normalised enrichment score” 3.7.
For `PRARKRLELGKLG [N11K]`, “normalised enrichment score” read 4.56.
`PRARKRLELWNLG [G10W]` — result for “normalised enrichment score”: 5.6.

Mixed results
For `PhoQ, residues 284 288 289 292 302 303 SSLVEF`, the fold induction was 1.04 (PhoP, residues 12 14 15 18 19 TPLRH (Escherichia coli, UniProt P23836); Sort-seq, item: YFP reporter; E. coli; PhoQ-PhoP variant library, with: 10 µM Mg2+; reference: high Mg2+ state, higher = stronger signaling).

For quick reference, copied from above (block 2):
`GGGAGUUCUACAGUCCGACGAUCCCUGCCCUAGAAACUCCAUAAAUGCUGUCACAACCCUAUCAUCGCUGAUGCUUUCUGCAUGUCAGCAGUCCAGGAGGAUGCUUUUUGUCUCUCUUUGCCUCCACUUUACAUGGAAUUCUCGGGUGCCAA` — result for “RBNS enrichment (R)”: 0.786.
Under “RBNS enrichment (R)”, `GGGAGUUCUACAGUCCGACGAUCAUAUGUACCCUUUCCACCCCUUGACUUGCUGAAGAAACGUUAUAGAAGAAAUUAAAUGAAUUUCCCAGGCUUUUAGGAUCCUCUGAAAUUUUGAGGAUAGGUGAGGCCUGUGGAAUUCUCGGGUGCCAA` is recorded as 0.973.
